Measurements of several laboratories.
Numbered parts are unrelated; each lists some results of a single study.

Sample 1 — method: protein binding microarray; molecule type: double-stranded DNA, one strand shown; medium: in vitro; tested at: not given; baseline: not given; direction: higher = stronger binding
Target: Histone acetyltransferase KAT6A, winged helix 1, GST fusion (KAT6A, Homo sapiens, UniProt Q92794, residues 1-85)
Setting: 8-mer, flanks averaged, mean of 2 arrays, mostly near background
Residues (chain): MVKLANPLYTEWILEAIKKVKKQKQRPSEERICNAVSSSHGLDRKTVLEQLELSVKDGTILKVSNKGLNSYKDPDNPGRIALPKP
Oligonucleotide	E-score
AAGAGTCC	-0.16
AAGTAGAA	-0.251
CAGGGTCC	-0.107
ACCTATCG	-0.0158
CACCCGGG	0.206
TAGCCGGA	0.236
CGCTGCCC	0.278
ACTGAAAA	-0.153
AATCCTCT	-0.157
ACATTGTA	-0.115
CCACCAAG	-0.115
GATAGATA	-0.131
CTTCGCTC	0.153
GCGATACA	-0.0133
ATGTGGGC	-0.00611
GAATAGCC	0.0779
AATGGGGC	-0.134
CATTCTAA	-0.252
AATTGAGA	-0.00133
GCCATCGA	0.00946
AAATGGTA	-0.151
ACGCGTAG	0.359
CACGGCAG	0.272
CGGCGAAC	0.38
ATATCGAA	-0.0943

Sample 2 — method: protein-binding microarray; molecule type: double-stranded DNA, one strand shown; medium: in vitro; tested at: 2200 nM top; setting: 60-bp whole probe; together with: salmon DNA 0.4 mg/ml; baseline: random background probes; direction: higher = stronger binding; all sequences stand within: GCCTAGCAC … GTCTTGATTCGCTTGACGCTGCTG
Target: Interferon regulatory factor 7, full length, phosphomimetic (IRF7, Homo sapiens, UniProt Q92985, residues 1-503, S471D/S472D/S475D/S476D/S477D/S483D/S484D/S487D)
Residues (chain): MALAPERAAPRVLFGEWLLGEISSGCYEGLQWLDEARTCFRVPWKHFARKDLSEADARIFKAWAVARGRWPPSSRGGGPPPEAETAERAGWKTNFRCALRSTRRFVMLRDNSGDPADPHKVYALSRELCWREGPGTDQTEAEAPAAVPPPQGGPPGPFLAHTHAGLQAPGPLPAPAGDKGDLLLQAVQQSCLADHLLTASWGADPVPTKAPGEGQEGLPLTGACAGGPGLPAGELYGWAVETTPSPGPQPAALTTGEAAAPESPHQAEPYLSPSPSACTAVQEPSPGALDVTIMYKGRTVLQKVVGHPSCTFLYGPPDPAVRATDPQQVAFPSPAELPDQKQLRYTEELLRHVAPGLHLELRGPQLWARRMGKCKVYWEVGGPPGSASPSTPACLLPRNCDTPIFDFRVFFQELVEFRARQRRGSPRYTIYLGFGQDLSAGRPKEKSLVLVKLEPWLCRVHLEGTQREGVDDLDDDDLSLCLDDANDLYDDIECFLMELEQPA
Oligonucleotide	fitted relative affinity [z-score]
GACGGTTTCGGACTCGGGACGTGCTAG	3.81
TTAGGTGTCGGTATCGGTTAGTGCTAG	0.428
TTTGATATCAGACTGGATTAGTGCTAG	0.141
TGGATGGTCCTGGTTTCATGGGTGCTA	0.0239
GACCGACTGGGACTGGGGACGTGCTAG	-0.901
TTAGGAGTGGACTTTCGGTTAGTGCTA	5.02
GAAGGTTTCGGGTATCGGGACGTGCTA	5.56
GACGGTATCGGACTAGGGACGTGCTAG	-0.225
TTAGATCTCAGTCCCGATTAGTGCTAG	0.596
CTAGGACTGGACTATCGGTTAGTGCTA	-0.116
TCTTTTTGCTTTCTTTTATGGTGCTAG	3.74
GACGGACAGGGTTTCGGGACGTGCTAG	0.521
TCAAATTTTGTCATCTAACTGTGCTAG	0.233
GACGATATCCGGTATCGAGACGTGCTA	0.957
TTAGCTATCGGGTATCGGTTAGTGCTA	0.516
GACGGTTCCGGTTTCGGGATGTGCTAG	6.48
TTACGTATCCTTATCCTTTAGTGCTAG	2.5
TTAGGTTTCCTTATCCTTGAGTGCTAG	1.78
TTAGGTCTCGGCCTGGGTTAGTGCTAG	-0.464

Sample 3 — method: Spec-seq; molecule type: double-stranded DNA, one strand shown; medium: in vitro; tested at: not given; setting: whole probe, mean of replicates; baseline: not given; direction: lower = stronger binding; all sequences stand within: GAGTCGTCTCGTCAGCAC … CCGTAGAGCACTCAGGTC
Target: Transcription factor SOX-2, HMG box (Sox2, Mus musculus, UniProt P48432, residues 41-119)
Chain of UniProt P48432 (41-119, looked up): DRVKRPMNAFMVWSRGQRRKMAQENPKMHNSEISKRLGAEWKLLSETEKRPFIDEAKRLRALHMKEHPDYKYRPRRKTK
Oligonucleotide	relative binding energy [ln ratio]
ACATGTT	0.0808
CATAGCC	-0.232
CATGCTG	0.564
AGTCGTT	0.402
CATTACA	-0.27
AAGCGTT	0.433
CATGTAA	0.0727
GGGAGTT	1.46
AAGAGTT	-0.0554
CATCAAA	0.0953
TCGAGTT	1.13
CATCCAC	0.984
CATACAC	-0.511
CATCACA	0.54
CCGCGTT	1.43
GACGGTT	1.35
GAGGGTT	1.53
CGACGTT	1.36
CATACAA	-1.21
CCATGTT	0.47
CATGACT	0.346
CGGAGTT	1.36

Sample 4 — method: RNA Bind-n-Seq; molecule type: RNA; medium: in vitro; tested at: 365 nM; baseline: no-protein control; direction: higher = stronger binding
Target: RNA binding protein fox-1 homolog 2, RRM domain, GST-SBP tag (RBFOX2, Homo sapiens, UniProt O43251-10, residues 100-194)
Setting: natural RNA segment, single round, ends assumed
All sequences stand within: GGGAGUUCUACAGUCCGACGAUC … UGGAAUUCUCGGGUGCCAA
Residues (chain): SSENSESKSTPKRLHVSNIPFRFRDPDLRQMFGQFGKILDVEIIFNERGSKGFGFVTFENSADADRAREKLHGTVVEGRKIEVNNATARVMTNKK
Oligonucleotide	RBNS enrichment (R)
CCAUGUCAUCUUAACCUAAAGGGAAAUCUUAUUGCGUUAUCAUAAAAUUGAUGAUAUCUUAGGGUCAGAAUUGCCCUUUUUUUUUAUUUUGAAUGGGAAGUUCUCACUAA	0.374
CGUCUGUCAGGAUAUUAAGCCCUGCGUCAUGUGACGGAAAGAGGCCAAGCGAUGGCCGCUCUCUCCUCUCCCCUCCUCAGAGGGGGCAGAUAGAAACUGGGACGGAUUCA	0.265
CACAUUGCAAUCACUUGAUUGUGAGUCCUUGGGAGCAAAUGCCUGAUGCUGUAUUUUCACAACUCUGAGGAAACGUCUGGGAACUCCUAGGGGUAGGCGAUUGACUGCCU	0.418
GACGCUCAGAGAGCCCUGCCUCAGCGGCGUCAACGUGAUUAGUUUGCCUAAUUCAUAUUUUCACUUCCAAGUUUAUCAGAGGCGAAUGCAUAAACUAAAGGGUCAUUUGU	0.482
GAGACCUGGCCCUGCUACGGCCCUGCCACAGCACCACCAUUCCCCAAGGAGGCUCUGCACAGCUCACUUGUGGGGAAGACGGGACAUGCUUCCAGAUUUUCUUUGGGGGU	0.276
UCCUGCCCCUGACCGUGACCCAGAACUUGACCAUGAUAGAAGAGAGCCUCACCUCUGAGUUCAUUCAUGACAUCGACCGAGAACUGAAGACUAUCCAAGCUGUGCUGACU	1.26
AAGAGAUUCCUAUUACUGCAGUACAUACGUCUGCCAGGGGUAACCUGGCCACUGUCCCUGUCCUUCUACAGAACCUGAGGGCAAAGAUGGUGGCUGUGUCUCUCCCCGGU	0.242
UCAAAGCCACUGGUUAUUUUGUUUUUCAUCAGGCGAUUUUCAAGAUUUUCAUUUGUUUCAGUAUUGUUGGUUUUCUCUUUUCUCUUUUUUACACUGUGGUACAUAUAAGC	1.16
